Measurements collected from several papers.
A part holds a random share of what one study measured. Changes are numbered by the printed parent chain.

Sample 1 — method: protein binding microarray; form: double-stranded DNA, one strand shown; sample: in vitro; concentration: not given; baseline: not given; reading: higher = stronger binding; measurement: E-score
Target: Histone acetyltransferase KAT6A, winged helix 2, GST fusion (KAT6A, Homo sapiens, UniProt Q92794, residues 85-181)
Notes: 8-mer, flanks averaged, mean of 2 arrays, mostly near background
Construct (chain): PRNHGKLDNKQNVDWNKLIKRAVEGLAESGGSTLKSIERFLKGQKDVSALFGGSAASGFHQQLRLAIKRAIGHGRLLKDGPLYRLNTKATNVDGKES
Sequence = CAAACAAC; result = 0.141
Sequence = ATATGCCG; result = 0.101
Sequence = ATATTAAC; result = 0.134
Sequence = CACGGACG; result = 0.133
Sequence = GTCTCGAA; result = 0.108
Sequence = CATGTAGC; result = 0.0903
Sequence = CCCCGGCC; result = 0.0272
Sequence = CCTTGGAG; result = 0.0512
Sequence = AACAATGC; result = 0.011
Sequence = GGTTACGA; result = -0.127
Sequence = GGCACTGA; result = 0.0911
Sequence = AAAAGTCT; result = -0.366
Sequence = ATAACGAC; result = -0.094
Sequence = ATTGAGCC; result = 0.0854
Sequence = TCAGTACA; result = -0.000565
Sequence = GGAAGGGA; result = 0.0902
Sequence = GTGAGAAA; result = 0.0772
Sequence = GGATCGCA; result = -0.151

Sample 2 — target: CCNE2, cyclin fold, Cln2 fusion (human); method: yeast growth competition, sequencing; sample: yeast; notes: strong parent motif; baseline: not given; reading: higher = stronger binding; measurement: normalised enrichment score
Starting sequence: BRCA2 docking peptide (human); PSIKRNLLNEFDR
Substitution = S2T; result = 1.67
Substitution = R13Q; result = 1.2
Substitution = N6D; result = 0.431
Substitution = N6C; result = 0.0913
Substitution = D12I; result = 0.438
Substitution = E10T; result = -0.345
Substitution = S2V; result = 0.731
Substitution = K4S; result = 0.296
Substitution = N9C; result = 1.36
Substitution = P1V; result = 1.76
Substitution = F11Y; result = 0.554
Substitution = P1K; result = 2.72
Substitution = R5S; result = 0.429
Substitution = R5C; result = -0.113
Substitution = K4W; result = -0.25
Substitution = P1N; result = 2.48
Substitution = I3P; result = 0.664
Substitution = E10A; result = 0.636
Substitution = R13V; result = 1.26
Substitution = N9I; result = 2.07
Substitution = L7P; result = 0.0681
Substitution = R5V; result = 0.825
Substitution = L7A; result = 0.177
Substitution = S2P; result = 1.06
Substitution = N9E; result = 1.4

Sample 3 — method: RNA Bind-n-Seq; form: RNA; sample: in vitro; concentration: 20 nM; notes: 6-mer, flanks averaged, single round; added: 150 mM LiCl; baseline: input library; reading: higher = stronger binding; measurement: 6-mer enrichment (R)
Target: TAR DNA-binding protein 43, full length, His tag (TARDBP, Homo sapiens, UniProt Q13148, residues 1-414)
Sequence = GGCUUU; result = 1.01
Sequence = ACCUAA; result = 0.838
Sequence = UGCUAC; result = 0.886
Sequence = AAUGUC; result = 0.911
Sequence = GACACU; result = 0.962
Sequence = GCUCCC; result = 1.11
Sequence = GGUACU; result = 0.906
Sequence = UGCUGA; result = 0.953
Sequence = CCUCGU; result = 0.899
Sequence = CGUGGG; result = 1.16
Sequence = AGGUGA; result = 1.06
Sequence = CUAAGC; result = 0.817
Sequence = UCCAGU; result = 0.923
Sequence = CACGUC; result = 0.857
Sequence = AACGCC; result = 0.837
Sequence = AACGGG; result = 0.941
Sequence = GUUCGC; result = 0.909
Sequence = CAUGAC; result = 0.838
Sequence = CUGUAC; result = 0.892
Sequence = UACCUA; result = 0.863
Sequence = GUGACG; result = 1.03

Sample 4 — method: RNA Bind-n-Seq; form: RNA; sample: in vitro; concentration: 365 nM; baseline: no-protein control; reading: higher = stronger binding; measurement: RBNS enrichment (R)
Target: RNA binding protein fox-1 homolog 2, RRM domain, GST-SBP tag (RBFOX2, Homo sapiens, UniProt O43251-10, residues 100-194)
Notes: natural RNA segment, single round, ends assumed
Residues (chain): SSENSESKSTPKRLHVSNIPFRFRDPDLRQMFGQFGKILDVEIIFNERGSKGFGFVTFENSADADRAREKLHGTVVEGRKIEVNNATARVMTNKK
Sequence = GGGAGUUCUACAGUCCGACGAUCUGCAUGAUCCACCUGCUGCACGAUCCUAUGAGGGCUUCCUGUGGCACACAGCCCUCUGGGUGCUUGGGAACUAGCUUCAGGCACAGCCUGAUUCUGGUGAUCCAGUGAUCUGGAAUUCUCGGGUGCCAA; result = 2.88
Sequence = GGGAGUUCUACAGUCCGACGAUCUGCUUUCUUUUUUUUUUUCUUUUUGAUGCCUUAAUGUAGAUAUCUUUAUCAUUCUGAAUUGUAUUAUAUAUUUAAAGUGCUCAUUAAUAGAAUGAUGGAUGUAAAUUGGAUGGAAUUCUCGGGUGCCAA; result = 0.632
Sequence = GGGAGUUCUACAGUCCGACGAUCCAGAGCUAGGGCCCUACCUGAGCAAGUCGGCUGUGGCCCGGGAGGCAGCGUGACUCCUGCUGUCCUCCAGCCUUUCAGAUGAGAUCCUAUUCCAGCCAAAUGCAGGGAAAUGGAAUUCUCGGGUGCCAA; result = 0.298
Sequence = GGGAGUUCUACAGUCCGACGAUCGCUCACAGGUGUUUGUUGGAAUCAUUUGCCGAGUCAUUUCCUCAAAUCAUAUUCCAUUGUGUCAGUUAACAUAGAGUUUUAAAUGUAUGUAUUAUAAAUACCUGUAACCAUGGAAUUCUCGGGUGCCAA; result = 0.445
Sequence = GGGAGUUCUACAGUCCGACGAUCAAAUAUAUGAGCCUAUGGGAACCAUUCUCAUUCAAACCACUAAACAUAGCCAAAUUCUUAGUUAUUUUAGACAGUAAAGGGGCUUCUAGAAUGUUAAGAAUGUUGAAAAUUGGAAUUCUCGGGUGCCAA; result = 0.861
Sequence = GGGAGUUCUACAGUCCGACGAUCCAUCCACUACCAUGUGCACUGACUGGCCUCAUUUUAUGAAGGAAGAGACAGGACCAGAGAGGCGAUGUCACACAGCCAGUGAUGUCAGGACAUAAAUUCAGAGUGGCUGGUGGAAUUCUCGGGUGCCAA; result = 0.278
Sequence = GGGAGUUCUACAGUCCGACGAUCAGCCAAUCUGUGCUCUGGGCCUUGCCUCCCAGGCCACAGUCCUGCUCCCAACUUGUUUGUCCCUAGAAGCAGACAACUUUGAACCAAAAGCAUCUCAGUCAAGCAUCUAAUGGAAUUCUCGGGUGCCAA; result = 0.489
Sequence = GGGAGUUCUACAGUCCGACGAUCUCACUGACUGGGUCUCUUCAGCUGUCAUCAGGCUUCCACCAGAAGAACAAACAACAACAAAAAAAGCCAAUGAAGCCAUGUGCUGUCCUUAGGCAGACGUACUUGUCUCCUGGAAUUCUCGGGUGCCAA; result = 0.46
Sequence = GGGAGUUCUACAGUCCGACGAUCGCCCUACCUUCUUUCUUGUUUGAUUGAUUUAGACACACUGGUGCUCUUACAGGUGGAGAAUGAGUGUUUGAUGGAUAUAGGUAAGCAUAUUUAUUUGACAGCUAUGAGGAUGGAAUUCUCGGGUGCCAA; result = 1.78
Sequence = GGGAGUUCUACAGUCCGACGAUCUCUCCAGACCUUGCUGCCCUUGCCUGGUCAUCUUUGUACAGUAAUUGUAAAUGGCAGUGGAGACUAUGGUGUUCCUGAGGGGCAAUGGCAGGUCACUCUCCCGAUCUCCCUGGAAUUCUCGGGUGCCAA; result = 0.327
Sequence = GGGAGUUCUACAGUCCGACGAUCAUAGAAUAUAUAAAACAUAACUUCAAGCUUAUGUCUUCUUUUUAAAACAUCUGAAGUAUGGGACGCCCUGGCCGUUCCAUCCAGUACUAAAUGCUUACCGUGUGACCCUUUGGAAUUCUCGGGUGCCAA; result = 0.302
Sequence = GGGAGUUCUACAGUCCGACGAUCGUUCUGCUCACCGAUAUUUGCCCGGCCCCUGGAAGAGGAAACCUUUCGAAAGCUAAUAUCCCAGAAGAGCGACAGACAGAGGAGGUGACUACAUGUAAGACAUAUGUUACUGGAAUUCUCGGGUGCCAA; result = 0.379

Sample 5 — method: aptamer microarray, sandwich; form: DNA with 2'F-ANA; sample: in vitro; concentration: 200 nM; added: Cy3 exosite-II aptamer, 400 nM; reading: higher = stronger binding; measurement: mean fluorescence intensity; sequence: GGTTGGTGTGGTTGG
Target: Prothrombin, mature alpha-thrombin (F2, Homo sapiens, UniProt P00734)
Notes: whole 15-mer aptamer, many near background
Modification = 2'F-ANA at 1 2 3 4 5 6 7 8 9 10 15; result = 51.2 a.u.
Modification = 2'F-ANA at 1 3 5 6 9 12; result = 141 a.u.
Modification = 2'F-ANA at 3 4 5 6 7 8 9 10 13 15; result = 74.3 a.u.
Modification = 2'F-ANA at 2 3 4 7 11; result = 657 a.u.
Modification = 2'F-ANA at 7 8 11 12 13 14; result = 283 a.u.
Modification = 2'F-ANA at 1 3 7 10 14; result = 58.7 a.u.
Modification = 2'F-ANA at 5 6 7 8 10 13 15; result = 53.5 a.u.
Modification = 2'F-ANA at 3 5 7 9 11 12 13 14 15; result = 65 a.u.
Modification = 2'F-ANA at 2 3 8 9 10 11; result = 351 a.u.
Modification = 2'F-ANA at 2 4 5 8 9 11 12 13 15; result = 80.2 a.u.
Modification = 2'F-ANA at 1 6 7 8 14; result = 66.2 a.u.
Modification = 2'F-ANA at 2 5 6 7 8 9 10 15; result = 55.4 a.u.
Modification = 2'F-ANA at 1 2 4 5 9 11 15; result = 49.1 a.u.
Modification = 2'F-ANA at 2 3 4 8 9 10 11 12 13 14; result = 172 a.u.
Modification = 2'F-ANA at 1 2 8 9 10 12 14 15; result = 48.6 a.u.
Modification = 2'F-ANA at 2 4 7 8 9 10 11 15; result = 84.2 a.u.
Modification = 2'F-ANA at 1 3 5 10 12; result = 46.3 a.u.
Modification = 2'F-ANA at 6 7 13 14; result = 199 a.u.
Modification = 2'F-ANA at 1 3 4 7 8 9 14; result = 73.2 a.u.
Modification = 2'F-ANA at 1 4 5 6 10 13; result = 44.1 a.u.
Modification = 2'F-ANA at 3 8 13 14 15; result = 546 a.u.
Modification = 2'F-ANA at 7 9 10 11 14; result = 112 a.u.
Modification = 2'F-ANA at 1 4 5 7 8 9 13 15; result = 48.7 a.u.
Modification = 2'F-ANA at 1 2 5 8 9 10 15; result = 53.6 a.u.
Modification = 2'F-ANA at 1 5 6 8 11 12 13 14; result = 50.8 a.u.

Repeated from above (sample 3):
Sequence = UCCAGU; result = 0.923
Sequence = CAUGAC; result = 0.838
Sequence = GUGACG; result = 1.03
Sequence = CUGUAC; result = 0.892
Sequence = AACGGG; result = 0.941
Sequence = UACCUA; result = 0.863
Sequence = CACGUC; result = 0.857
Sequence = GACACU; result = 0.962
Sequence = GGUACU; result = 0.906
Sequence = GCUCCC; result = 1.11
